Experimental data gathered from unrelated publications.
Compare with care: the assays were run in different laboratories. Numbers after ± are the reported error.

Compound	species	matrix	route	dose	time	setting	tissue uptake
N=C(N)NCCC[C@H](NC(=O)[C@H](CCCCN)NC(=O)[C@H](CCC(N)=O)NC(=O)CCOCCOCCOCCNC(=O)CN1CCN(CC(=O)O)CCN(CC(=O)O)CCN(CC(=O)O)CC1)C(=O)N[C@@H](CCCCN)C(=O)N[C@@H](CCCNC(=N)N)C(=O)N[C@@H](CCCCN)C(=O)N[C@@H](CCCCN)C(=O)N[C@@H](CO)C(=O)N[C@@H](CCCNC(=N)N)C(=O)N[C@@H](Cc1ccc(O)cc1)C(=O)N[C@@H](CCCCN)C(=O)N[C@@H](CO)C(=O)O [copper-64 labelled]	C57BL/6 mice, B16-F10 tumour	lung	intravenous	–	60 min	–	1.73 ± 0.27 %ID/g
CSCC[C@H](NC(=O)[C@H](CC(C)C)NC(=O)[C@H](Cc1c[nH]cn1)NC(=O)CNC(=O)[C@@H](NC(=O)[C@H](C)NC(=O)[C@H](Cc1c[nH]c2ccccc12)NC(=O)[C@H](CCC(N)=O)NC(=O)CCCCCCCNC(=O)CCC(=O)Nc1ccc(CNC23CNCCNCC(N)(CNCCNC2)CNCCNC3)cc1)C(C)C)C(N)=O [copper-64 labelled]	female SCID mice, PC-3 xenograft	liver	intravenous	0.6 MBq	24 h	–	4.68 ± 0.289 %ID/g
N=C(N)NCCC[C@@H]1NC(=O)[C@H](CCCCNC(=O)CNC(=O)CNC(=O)CNC(=O)CC[C@H](NC(=O)CCOCCOCCOCCOCCNC(=O)CC[C@H](NC(=O)CN2CCN(CC(=O)O)CCN(CC(=O)O)CCN(CC(=O)O)CC2)C(=O)NCCOCCOCCOCCOCCC(=O)N[C@@H](CCC(=O)NCC(=O)NCC(=O)NCC(=O)NCCCC[C@@H]2NC(=O)[C@@H](Cc3ccccc3)NC(=O)[C@H](CC(=O)O)NC(=O)CNC(=O)[C@H](CCCNC(=N)N)NC2=O)C(=O)NCC(=O)NCC(=O)NCC(=O)NCCCC[C@@H]2NC(=O)[C@@H](Cc3ccccc3)NC(=O)[C@H](CC(=O)O)NC(=O)CNC(=O)[C@H](CCCNC(=N)N)NC2=O)C(=O)NCC(=O)NCC(=O)NCC(=O)NCCCC[C@@H]2NC(=O)[C@@H](Cc3ccccc3)NC(=O)[C@H](CC(=O)O)NC(=O)CNC(=O)[C@H](CCCNC(=N)N)NC2=O)NC(=O)[C@@H](Cc2ccccc2)NC(=O)[C@H](CC(=O)O)NC(=O)CNC1=O [indium-111 labelled]	female athymic nude mice	bone	intravenous	3 µCi	0.5 h	U-87 MG glioma xenograft	2.17 ± 0.42 %ID/g
N=C(N)NCCC[C@@H]1NC(=O)[C@H](CCCCNC(=O)CCOCCOCCOCCOCCNC(=O)CC[C@H](NC(=O)CCOCCOCCOCCOCCNC(=O)[C@H](CCCCNC(=O)c2ccc(NN)nc2)NC(=O)c2ccc(NN)nc2)C(=O)NCCOCCOCCOCCOCCC(=O)NCCCC[C@@H]2NC(=O)[C@@H](Cc3ccccc3)NC(=O)[C@H](CC(=O)O)NC(=O)CNC(=O)[C@H](CCCNC(=N)N)NC2=O)NC(=O)[C@@H](Cc2ccccc2)NC(=O)[C@H](CC(=O)O)NC(=O)CNC1=O [technetium-99m labelled]	female athymic nude mice	liver	intravenous	0.1 MBq	1 h	U-87 MG glioma xenograft	3.05 ± 0.54 %ID/g
N=C(N)NCCC[C@@H]1NC(=O)[C@H](CCCCNC(=O)CCOCCOCCOCCOCCNC(=O)CC[C@H](NC(=O)CCOCCOCCOCCOCCNC(=O)CC[C@H](NC(=O)CN2CCN(CC(=O)O)CCN(CC(=O)O)CCN(CC(=O)O)CC2)C(=O)NCCOCCOCCOCCOCCC(=O)N[C@@H](CCC(=O)NCCOCCOCCOCCOCCC(=O)NCCCC[C@@H]2NC(=O)[C@@H](Cc3ccccc3)NC(=O)[C@H](CC(=O)O)NC(=O)CNC(=O)[C@H](CCCNC(=N)N)NC2=O)C(=O)NCCOCCOCCOCCOCCC(=O)NCCCC[C@@H]2NC(=O)[C@@H](Cc3ccccc3)NC(=O)[C@H](CC(=O)O)NC(=O)CNC(=O)[C@H](CCCNC(=N)N)NC2=O)C(=O)NCCOCCOCCOCCOCCC(=O)NCCCC[C@@H]2NC(=O)[C@@H](Cc3ccccc3)NC(=O)[C@H](CC(=O)O)NC(=O)CNC(=O)[C@H](CCCNC(=N)N)NC2=O)NC(=O)[C@@H](Cc2ccccc2)NC(=O)[C@H](CC(=O)O)NC(=O)CNC1=O [indium-111 labelled]	female athymic nude mice	eyes	intravenous	3 µCi	72 h	U-87 MG glioma xenograft	0.48 ± 0.06 %ID/g
CSCC[C@H](NC(=O)[C@H](CC(C)C)NC(=O)[C@H](Cc1c[nH]cn1)NC(=O)CNC(=O)[C@@H](NC(=O)[C@H](C)NC(=O)[C@H](Cc1c[nH]c2ccccc12)NC(=O)[C@H](CCC(N)=O)NC(=O)CNC(=O)[C@H](CO)NC(=O)CNC(=O)CCCCCCCNC(=O)CCC(=O)Nc1ccc(CNC23CNCCNCC(N)(CNCCNC2)CNCCNC3)cc1)C(C)C)C(N)=O [copper-64 labelled]	female SCID mice, PC-3 xenograft	lung	intravenous	0.6 MBq	1 h	–	1.24 ± 0.062 %ID/g
N=C(N)NCCC[C@@H]1NC(=O)[C@H](CCCCNC(=O)CC[C@H](NC(=O)CCOCCOCCOCCOCCNC(=O)CN2CCN(CC(=O)O)CCN(CC(=O)O)CCN(CC(=O)O)CC2)C(=O)NCCCC[C@@H]2NC(=O)[C@@H](Cc3ccccc3)NC(=O)[C@H](CC(=O)O)NC(=O)CNC(=O)[C@H](CCCNC(=N)N)NC2=O)NC(=O)[C@@H](Cc2ccccc2)NC(=O)[C@H](CC(=O)O)NC(=O)CNC1=O [indium-111 labelled]	female athymic nude mice	heart	intravenous	3 µCi	24 h	U-87 MG glioma xenograft	0.35 ± 0.05 %ID/g
CC(C)C[C@H](NC(=O)[C@H](Cc1ccc(O)cc1)NC(=O)[C@@H](CCCNC(=N)N)NC(=O)[C@@H](CO)NC(=O)[C@H](Cc1ccccc1)NC(=O)[C@H](CC1CCCCC1)NC(=O)[C@H](CC(=O)O)NC(=O)CCC(C(=O)O)N1CCCN2CCN(CCCN(CC(=O)O)CC2)CC1)C(=O)N[C@@H](Cc1c[nH]c2ccccc12)C(=O)N[C@@H](CO)C(=O)O (stereo partly drawn) [copper-64 labelled]	female NMRI nude mice	brain	–	–	22 h p.i.	–	0.1 ± 0.1 %ID/g
N=C(N)NCCC[C@@H]1NC(=O)[C@H](CCCCNC(=O)CNC(=O)CNC(=O)CNC(=O)CC[C@H](NC(=O)CNC(=O)CNC(=O)CNC(=O)[C@H](CCCCNC(=O)c2ccc(NN)nc2)NC(=O)c2ccc(NN)nc2)C(=O)NCC(=O)NCC(=O)NCC(=O)NCCCC[C@@H]2NC(=O)[C@@H](Cc3ccccc3)NC(=O)[C@H](CC(=O)O)NC(=O)CNC(=O)[C@H](CCCNC(=N)N)NC2=O)NC(=O)[C@@H](Cc2ccccc2)NC(=O)[C@H](CC(=O)O)NC(=O)CNC1=O [technetium-99m labelled]	female athymic nude mice	liver	intravenous	0.1 MBq	1 h	U-87 MG glioma xenograft	2.61 ± 0.59 %ID/g

Repeated from above:
Compound	species	matrix	route	dose	time	setting	tissue uptake
CC(C)C[C@H](NC(=O)[C@H](Cc1ccc(O)cc1)NC(=O)[C@@H](CCCNC(=N)N)NC(=O)[C@@H](CO)NC(=O)[C@H](Cc1ccccc1)NC(=O)[C@H](CC1CCCCC1)NC(=O)[C@H](CC(=O)O)NC(=O)CCC(C(=O)O)N1CCCN2CCN(CCCN(CC(=O)O)CC2)CC1)C(=O)N[C@@H](Cc1c[nH]c2ccccc12)C(=O)N[C@@H](CO)C(=O)O (stereo partly drawn) [copper-64 labelled]	female NMRI nude mice	brain	–	–	22 h p.i.	–	0.1 ± 0.1 %ID/g
